Experimental data of several laboratories.
Compare with care: the assays were run in different laboratories. “And” joins repeats or separate records; there may be more than shown. ± marks the error that the study gave.

SMILES = O=c1ccc2ncc(=O)n3c2n1C[C@H]3CN1CCC(NCc2cc3c(cn2)OCCC3)CC1; system = healthy human volunteers, plasma; conditions = oral, dose not given, arithmetic mean, added: rifampicin; half-life = 11.1 h
SMILES = C[C@H](NC(=O)c1c(C(F)F)nn(C)c1Oc1cccc(C(F)(F)F)c1)c1ccc(C(=O)O)cc1; system = human, plasma; conditions = 750 mg, cycle 1 day 8, mean; half-life = 8.7 h
SMILES = CC(=O)c1c(C)c2cnc(Nc3ccc(C4CCN(CCS(C)(=O)=O)CC4)cn3)nc2n(C2CCCC2)c1=O; system = human, plasma; conditions = oral, 50 mg twice daily, day 21, multiple dose, added: letrozole; half-life = 5.29 h
SMILES = OCc1ncc2n1-c1ccc(Cl)cc1C(c1ccccc1F)=NC2; system = healthy human volunteers, plasma; conditions = 5 mg single dose, day 1, fed, given alone; half-life = 5.48 h
SMILES = N[C@@H](Cc1ccc(O)c(O)c1)C(=O)O; assay = item: carbidopa; system = healthy human volunteers, plasma; conditions = subcutaneous, 24 h infusion, harmonic mean, crossover; half-life = 2.14 h
SMILES = CC(C)c1nc(N(C)S(C)(=O)=O)nc(-c2ccc(F)cc2)c1/C=C/[C@@H](O)C[C@@H](O)CC(=O)O; system = healthy human subjects, plasma; conditions = oral, 20 mg, day 1, alone, geometric mean; half-life = 16 h
SMILES = OCc1ncc2n1-c1ccc(Cl)cc1C(c1ccccc1F)=NC2; system = human, plasma; conditions = 7.5 mg midazolam, day 1, arithmetic mean, metabolite of midazolam, added: midazolam 7.5 mg alone; half-life = 4 h
SMILES = CCN(CC)C(=O)[C@@H]1C=C2c3cccc4[nH]cc(c34)C[C@H]2N(C)C1; system = human; conditions = oral, 100 µg; half-life = 3.24 h and 2.87 h and 2.77 h and 3.62 h and 2.64 h and 3.82 h and 3.9 h and 3.31 h
SMILES = COc1ccc2c(c1)[C@]13CCCC[C@@H]1[C@H](C2)N(C)CC3; system = human female; conditions = 30 mg, day 22; half-life = 12.7 ± 2.26 h
SMILES = CCC(CC)COC(=O)[C@H](C)N[P@](=O)(OC[C@H]1O[C@@](C#N)(c2ccc3c(N)ncnn23)[C@H](O)[C@@H]1O)Oc1ccccc1; system = human, plasma; conditions = intravenous, 100 mg single dose; half-life = 0.81 h
SMILES = C[C@]1(CO)Cc2ncn(-c3ccc(C#N)c(Cl)c3)c2C(=O)O1; system = human, Chinese, plasma; conditions = 20 mg single dose, geometric mean; half-life = 6.1 h
SMILES = OCc1ncc2n1-c1ccc(Cl)cc1C(c1ccccc1F)=NC2; system = humans, plasma; conditions = 3 mg of midazolam, added: isavuconazole; half-life = 6 h
SMILES = Cc1ncc2n1-c1ccc(Cl)cc1C(c1ccccc1F)=NC2; system = human; conditions = intravenous, 3 µg, single bolus, mean; half-life = 2.09 h
